Measured values of several laboratories.
Parts stem from different laboratories: compare values within a part only.
Chain of UniProt P42336 (whole entry, unmodified, looked up): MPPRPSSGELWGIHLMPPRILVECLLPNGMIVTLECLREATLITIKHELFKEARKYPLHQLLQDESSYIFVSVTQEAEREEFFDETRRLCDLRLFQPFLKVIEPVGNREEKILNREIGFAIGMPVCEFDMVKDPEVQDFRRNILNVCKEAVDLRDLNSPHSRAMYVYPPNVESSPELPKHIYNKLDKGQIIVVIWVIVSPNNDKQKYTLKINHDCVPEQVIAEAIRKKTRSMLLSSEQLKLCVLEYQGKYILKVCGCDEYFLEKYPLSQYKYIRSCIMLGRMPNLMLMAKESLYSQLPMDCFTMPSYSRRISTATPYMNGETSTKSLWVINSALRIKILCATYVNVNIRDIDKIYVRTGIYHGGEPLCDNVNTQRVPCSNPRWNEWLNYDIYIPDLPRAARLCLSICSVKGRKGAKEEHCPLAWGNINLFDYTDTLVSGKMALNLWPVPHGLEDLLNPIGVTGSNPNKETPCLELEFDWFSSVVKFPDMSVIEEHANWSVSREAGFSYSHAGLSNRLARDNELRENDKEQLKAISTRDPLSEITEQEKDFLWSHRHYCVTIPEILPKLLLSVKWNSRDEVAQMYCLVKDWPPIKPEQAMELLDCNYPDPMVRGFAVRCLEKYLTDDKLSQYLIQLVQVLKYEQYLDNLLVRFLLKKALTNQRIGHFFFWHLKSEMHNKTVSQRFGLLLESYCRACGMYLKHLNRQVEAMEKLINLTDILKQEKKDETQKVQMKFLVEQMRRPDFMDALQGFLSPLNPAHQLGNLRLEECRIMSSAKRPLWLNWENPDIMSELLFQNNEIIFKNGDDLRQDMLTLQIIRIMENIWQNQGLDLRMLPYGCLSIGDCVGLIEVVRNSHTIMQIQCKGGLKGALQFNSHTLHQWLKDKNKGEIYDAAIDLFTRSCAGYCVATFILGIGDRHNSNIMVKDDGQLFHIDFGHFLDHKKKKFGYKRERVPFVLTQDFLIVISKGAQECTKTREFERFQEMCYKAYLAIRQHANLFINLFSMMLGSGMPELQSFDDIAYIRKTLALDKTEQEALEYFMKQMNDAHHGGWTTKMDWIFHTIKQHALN
Chain of UniProt Q07002 (whole entry, looked up): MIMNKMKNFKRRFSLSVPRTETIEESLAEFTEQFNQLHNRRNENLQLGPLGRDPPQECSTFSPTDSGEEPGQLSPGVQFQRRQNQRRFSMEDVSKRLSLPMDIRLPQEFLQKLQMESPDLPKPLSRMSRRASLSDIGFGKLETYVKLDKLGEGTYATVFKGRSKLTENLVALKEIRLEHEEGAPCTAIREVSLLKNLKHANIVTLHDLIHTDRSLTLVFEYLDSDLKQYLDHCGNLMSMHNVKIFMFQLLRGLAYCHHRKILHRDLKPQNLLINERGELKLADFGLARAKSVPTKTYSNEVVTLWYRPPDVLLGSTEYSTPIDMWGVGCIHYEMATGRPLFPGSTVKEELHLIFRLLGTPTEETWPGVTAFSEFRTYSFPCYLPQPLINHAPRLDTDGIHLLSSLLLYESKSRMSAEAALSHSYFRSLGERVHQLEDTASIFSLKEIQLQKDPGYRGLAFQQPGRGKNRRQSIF

Set 1
Target: Receptor-type tyrosine-protein kinase FLT3 (FLT3, Homo sapiens, UniProt P36888)
Observed: enzyme activity
Action: inhibitor
Concentration: 0.5 µM
Reference: control
Structure (SMILES)	remaining activity
CCN(CC)CCCCN1c2ccccc2Oc2ccc(Cl)cc21	99%
O=C(O)/C=C/c1cc(Br)c(Br)c(Br)c1Br	79%
O=C1NC(=O)/C(=C/c2ccc3c(c2)OC(F)(F)O3)S1	92.9%
CCCCc1c(-c2ccc(O)cc2)[nH]c2nccnc12	45.3%
O=C(c1ccccc1)c1ccc(N2CCOCC2)cc1O	90.6%
Nc1nc(Nc2ccc(S(N)(=O)=O)cc2)nn1C(=S)Nc1c(F)cccc1F	1.07%
CNc1cc2c(Nc3cccc(Br)c3)ncnc2cn1	71.2%
CC(C)(C)c1nc2c3cc[nH]c(=O)c3c3cc(F)ccc3c2[nH]1	13.6%
c1cc(-c2cnn3cc(-c4ccc(OCCN5CCCCC5)cc4)cnc23)ccn1	0.164%
Clc1ccc(Nc2nnc(Cc3ccncc3)c3ccccc23)cc1	92%
FC(F)(F)c1ccc(/C=C/c2nc(COc3ccc(CCCCn4ccnn4)cc3)co2)cc1	87.8%
CC(C)n1cnc2c(Nc3cccc(Cl)c3)nc(NCCO)nc21	15.1%
NC(=O)c1cccc(-c2cc(Nc3ccc(OC(F)(F)F)cc3)ncn2)c1	98.9%
CC(C)N(CCC(=O)c1ccc2ccccc2c1)Cc1ccccc1	97.5%
C[C@@H](N)[C@H]1CC[C@H](C(=O)Nc2ccncc2)CC1	90.8%
O=Nc1c(-c2c(O)[nH]c3ccccc23)[nH]c2ccccc12	2.16%
N#CC(c1ccnc(NCCc2cccnc2)n1)c1nc2ccccc2s1 (centres unmarked)	58.2%
N#C/C(=C(/N)SC1C=CC=CC1)c1cccc(C(O)c2ccncc2)c1 (centres unmarked)	112%
NC(=O)c1ccc(-c2nc(-c3ccc4c(c3)OCCO4)c(-c3ccccn3)[nH]2)cc1	88.7%

Set 2
SMILES: CN1CCN(C(=O)c2ccc(NC(=O)Nc3ccc(N(C)c4ccnc(Nc5ccc(CS(C)(=O)=O)cc5)n4)cc3)cc2)CC1
Concentration: 1 µM
target	method	refers to	notes	reference	remaining binding [%]
CDK18 (Homo sapiens, UniProt Q07002)	competitive binding panel	PCTK3	–	vehicle	96
MAP2K1 (Homo sapiens, UniProt Q02750)	competitive binding	–	MEK1	–	33
ABL1 (Homo sapiens, UniProt P00519)	competitive binding, scanMAX	–	phosphorylated, 1000 nM	–	30
CHEK1 (Homo sapiens, UniProt O14757)	competitive binding panel	–	–	vehicle	100
CAMKK1 (Homo sapiens, UniProt Q8N5S9)	competitive binding panel	–	–	vehicle	28
CSNK1E (Homo sapiens, UniProt P49674)	competitive binding panel	–	–	vehicle	75
RIOK1 (Homo sapiens, UniProt Q9BRS2)	competitive binding panel	–	–	vehicle	2.2
RPS6KA5 (Homo sapiens, UniProt O75582)	competitive binding scan	–	N-terminal kinase domain 1	–	100
NTRK1 (Homo sapiens, UniProt P04629)	competitive binding	–	TRKA	–	7.1
PIK3CA (Homo sapiens, UniProt P42336, Q546K)	competitive binding panel	–	–	vehicle	100
KIT (Homo sapiens, UniProt P10721, T670I/V559D)	competitive binding panel	–	–	vehicle	0.1
BTK (Homo sapiens, UniProt Q06187)	competitive binding panel	–	–	vehicle	50

Set 3
Target: DNA polymerase theta, ATPase domain (POLQ, Homo sapiens, UniProt O75417)
Chain of UniProt O75417 (whole entry, unmodified, looked up): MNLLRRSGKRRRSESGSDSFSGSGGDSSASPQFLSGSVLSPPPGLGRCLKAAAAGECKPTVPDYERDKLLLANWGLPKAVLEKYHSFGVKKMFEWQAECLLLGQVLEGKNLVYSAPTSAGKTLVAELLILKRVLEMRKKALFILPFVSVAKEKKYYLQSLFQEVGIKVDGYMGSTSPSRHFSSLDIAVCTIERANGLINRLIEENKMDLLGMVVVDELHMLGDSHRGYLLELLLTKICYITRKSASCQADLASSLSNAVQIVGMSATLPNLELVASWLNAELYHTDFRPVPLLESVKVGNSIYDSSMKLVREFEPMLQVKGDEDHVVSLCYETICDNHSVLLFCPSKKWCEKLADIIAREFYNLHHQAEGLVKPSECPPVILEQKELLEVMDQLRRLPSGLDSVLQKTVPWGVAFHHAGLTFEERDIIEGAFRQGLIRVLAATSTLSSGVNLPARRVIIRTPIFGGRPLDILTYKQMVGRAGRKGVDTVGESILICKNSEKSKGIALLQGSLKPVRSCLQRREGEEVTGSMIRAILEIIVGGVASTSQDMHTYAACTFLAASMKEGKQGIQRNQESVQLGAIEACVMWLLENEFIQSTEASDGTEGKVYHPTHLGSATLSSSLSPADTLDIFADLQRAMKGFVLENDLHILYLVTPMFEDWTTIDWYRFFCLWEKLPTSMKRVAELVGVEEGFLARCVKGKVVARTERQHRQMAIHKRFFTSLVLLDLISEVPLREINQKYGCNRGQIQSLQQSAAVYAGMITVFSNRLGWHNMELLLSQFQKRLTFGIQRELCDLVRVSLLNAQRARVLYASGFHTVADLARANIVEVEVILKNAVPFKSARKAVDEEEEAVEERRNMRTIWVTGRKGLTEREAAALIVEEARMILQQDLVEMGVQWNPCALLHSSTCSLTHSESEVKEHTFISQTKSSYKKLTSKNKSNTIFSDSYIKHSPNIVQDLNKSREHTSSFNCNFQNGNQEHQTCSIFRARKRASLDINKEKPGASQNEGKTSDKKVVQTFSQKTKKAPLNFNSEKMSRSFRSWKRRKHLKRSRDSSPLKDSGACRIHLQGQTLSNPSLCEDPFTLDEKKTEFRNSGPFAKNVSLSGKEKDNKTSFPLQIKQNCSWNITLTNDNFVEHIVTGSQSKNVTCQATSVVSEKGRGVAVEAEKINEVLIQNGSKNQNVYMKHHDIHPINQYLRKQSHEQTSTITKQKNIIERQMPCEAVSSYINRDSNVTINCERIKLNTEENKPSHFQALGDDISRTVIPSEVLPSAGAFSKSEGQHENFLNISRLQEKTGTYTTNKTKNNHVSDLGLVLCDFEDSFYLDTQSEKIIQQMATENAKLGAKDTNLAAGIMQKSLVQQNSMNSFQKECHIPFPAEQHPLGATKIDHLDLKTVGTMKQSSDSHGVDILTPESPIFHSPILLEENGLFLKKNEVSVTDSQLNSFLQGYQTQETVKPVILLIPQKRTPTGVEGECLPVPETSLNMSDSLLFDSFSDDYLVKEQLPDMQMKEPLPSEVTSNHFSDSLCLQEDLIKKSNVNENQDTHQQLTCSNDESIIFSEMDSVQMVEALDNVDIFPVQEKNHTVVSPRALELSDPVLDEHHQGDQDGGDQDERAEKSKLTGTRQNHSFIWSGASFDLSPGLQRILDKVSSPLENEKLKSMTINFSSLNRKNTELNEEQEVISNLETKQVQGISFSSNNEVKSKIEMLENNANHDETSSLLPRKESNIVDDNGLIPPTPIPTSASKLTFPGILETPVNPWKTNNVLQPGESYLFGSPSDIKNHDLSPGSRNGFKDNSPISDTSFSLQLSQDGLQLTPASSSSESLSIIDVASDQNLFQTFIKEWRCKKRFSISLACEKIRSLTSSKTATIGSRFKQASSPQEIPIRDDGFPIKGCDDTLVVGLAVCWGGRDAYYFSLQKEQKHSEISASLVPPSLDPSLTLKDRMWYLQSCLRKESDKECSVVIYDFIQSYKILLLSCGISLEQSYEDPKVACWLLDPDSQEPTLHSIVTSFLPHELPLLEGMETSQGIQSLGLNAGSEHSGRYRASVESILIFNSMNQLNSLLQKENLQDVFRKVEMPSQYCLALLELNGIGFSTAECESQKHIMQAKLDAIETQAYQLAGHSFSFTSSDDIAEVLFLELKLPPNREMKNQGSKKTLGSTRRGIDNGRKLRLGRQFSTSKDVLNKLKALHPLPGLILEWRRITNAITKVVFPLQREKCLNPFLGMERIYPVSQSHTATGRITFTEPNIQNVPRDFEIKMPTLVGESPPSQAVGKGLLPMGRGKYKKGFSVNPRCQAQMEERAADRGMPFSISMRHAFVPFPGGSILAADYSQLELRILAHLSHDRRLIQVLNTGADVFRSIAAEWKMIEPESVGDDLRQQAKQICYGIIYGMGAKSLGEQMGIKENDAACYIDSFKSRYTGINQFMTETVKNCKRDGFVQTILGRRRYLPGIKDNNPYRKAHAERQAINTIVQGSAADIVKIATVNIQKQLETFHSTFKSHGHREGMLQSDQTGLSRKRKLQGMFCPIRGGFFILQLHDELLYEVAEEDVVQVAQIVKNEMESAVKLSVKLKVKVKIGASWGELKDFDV
Observed: enzyme activity
Action: inhibitor
Concentration: 77 µM
SMILES	remaining activity
O=C(NCC1CCCCN1)c1cc(OCC(F)(F)F)ccc1OCC(F)(F)F (centres unmarked)	110%
CN1CCN(C2=Nc3cc(Cl)ccc3Nc3ccccc32)CC1	101%
C[N+]1(C)CCC(OC(=O)C(O)(c2ccccc2)C2CCCC2)C1 (centres unmarked)	100%
CCCCCCCCCC[Si](C)(C)CCC(=O)NC(Cc1ccc(C)cc1)c1ccccc1 (centres unmarked)	105%
Cc1ccc(C(=O)Nc2ccc(S(=O)(=O)O)c3cc(S(=O)(=O)O)cc(S(=O)(=O)O)c23)cc1NC(=O)c1cccc(NC(=O)Nc2cccc(C(=O)Nc3cc(C(=O)Nc4ccc(S(=O)(=O)O)c5cc(S(=O)(=O)O)cc(S(=O)(=O)O)c45)ccc3C)c2)c1	6.56%
Clc1ccc2c(c1)C(N1CCNCC1)=Nc1ccccc1O2	93.4%
CN(C)C(=O)C(CCN1CCC(O)(c2ccc(Cl)cc2)CC1)(c1ccccc1)c1ccccc1	105%
CCN(CC)CC(=O)Nc1c(C)cccc1C	101%
CC[N+](C)(C)Cc1ccccc1Br	98.9%
COc1ccc2c(c1)CC[C@@H]1[C@@H]2CC[C@]2(C)[C@@H](NCCCCCCN3C(=O)CCC3=O)CC[C@@H]12	110%
Fc1ccc(C(c2ccc(F)cc2)N2CCN(C/C=C/c3ccccc3)CC2)cc1	102%
CC(C)n1c(/C=C/[C@H](O)C[C@H](O)CC(=O)O)c(-c2ccc(F)cc2)c2ccccc21	102%
CC(C)NC[C@@H](O)COc1ccc(CC(N)=O)cc1	93.6%
O=C1NC(=O)/C(=C/c2ccc3c(c2)OC(F)(F)O3)S1	71.6%

Set 4
SMILES: Cc1noc([C@H]2C[C@@H](c3ccc(C(F)(F)F)cc3)CN(C(=O)N3CCS(=O)(=O)C3)C2)n1
Concentration: 1 µM
target	observed	method	remaining binding [%]
CDK4 (Homo sapiens, UniProt P11802)	cell-free assay	competition with immobilised ligand	100
MAPK6 (Homo sapiens, UniProt Q16659)	cell-free assay	competition with immobilised ligand	100
PKMYT1 (Homo sapiens, UniProt Q99640)	cell-free assay	competition with immobilised ligand	100
PIK3CA (Homo sapiens, UniProt P42336, H1047L)	cell-free assay	competition with immobilised ligand	100
MAPK4 (Homo sapiens, UniProt P31152)	cell-free assay	competition with immobilised ligand	100
EGFR (Homo sapiens, UniProt P00533, G719C)	cell-free assay	competition with immobilised ligand	100
MATK (Homo sapiens, UniProt P42679)	cell-free assay	competition with immobilised ligand	100
MAP4K3 (Homo sapiens, UniProt Q8IVH8)	cell-free assay	competition with immobilised ligand	100
SRPK3 (Homo sapiens, UniProt Q9UPE1)	cell-free assay	competition with immobilised ligand	100
LRRK2 (Homo sapiens, UniProt Q5S007, G2019S)	cell-free assay	competition with immobilised ligand	94
PNCK (Homo sapiens, UniProt Q6P2M8)	cell-free assay	competition with immobilised ligand	100
TYRO3 (Homo sapiens, UniProt Q06418)	cell-free assay	competition with immobilised ligand	100
SYK (Homo sapiens, UniProt P43405)	cell-free assay	competition with immobilised ligand	96
RET (Homo sapiens, UniProt P07949, V804M)	cell-free assay	competition with immobilised ligand	100
TEC (Homo sapiens, UniProt P42680)	binding	competition with immobilised ligand	100
Tyrosine-protein kinase ABL1, phosphorylated (ABL1, Homo sapiens, UniProt P00519, F317I)	binding	–	100
STK24 (Homo sapiens, UniProt Q9Y6E0)	cell-free assay	competition with immobilised ligand	100

Excerpt of the above (set 3):
SMILES	remaining activity
Clc1ccc2c(c1)C(N1CCNCC1)=Nc1ccccc1O2	93.4%
CN(C)C(=O)C(CCN1CCC(O)(c2ccc(Cl)cc2)CC1)(c1ccccc1)c1ccccc1	105%
CCN(CC)CC(=O)Nc1c(C)cccc1C	101%
CC[N+](C)(C)Cc1ccccc1Br	98.9%
COc1ccc2c(c1)CC[C@@H]1[C@@H]2CC[C@]2(C)[C@@H](NCCCCCCN3C(=O)CCC3=O)CC[C@@H]12	110%
Fc1ccc(C(c2ccc(F)cc2)N2CCN(C/C=C/c3ccccc3)CC2)cc1	102%
CC(C)n1c(/C=C/[C@H](O)C[C@H](O)CC(=O)O)c(-c2ccc(F)cc2)c2ccccc21	102%
CC(C)NC[C@@H](O)COc1ccc(CC(N)=O)cc1	93.6%
O=C1NC(=O)/C(=C/c2ccc3c(c2)OC(F)(F)O3)S1	71.6%
